Published values of several laboratories.
Numbered parts are unrelated; each lists some results of a single study. Changes are numbered by the printed parent chain.
Chain of UniProt P62837 (whole entry, looked up): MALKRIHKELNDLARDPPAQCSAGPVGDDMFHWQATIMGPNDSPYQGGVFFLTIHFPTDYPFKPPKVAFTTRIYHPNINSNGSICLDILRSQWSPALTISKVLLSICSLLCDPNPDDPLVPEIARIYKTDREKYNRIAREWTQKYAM

Study 1
Target: ABI1, truncated, D143A, DHFR fusion (Arabidopsis thaliana)
Technique: DHFR PCA, deep sequencing
Matrix: yeast
Setting: methotrexate growth selection, single substitutions
Added: (+)-ABA 17 µM
Reference: wild-type fitted maximum
Direction: higher = stronger binding
Quantity: relative binding score
Starting sequence: PYL1, truncated, DHFR fusion (Arabidopsis thaliana); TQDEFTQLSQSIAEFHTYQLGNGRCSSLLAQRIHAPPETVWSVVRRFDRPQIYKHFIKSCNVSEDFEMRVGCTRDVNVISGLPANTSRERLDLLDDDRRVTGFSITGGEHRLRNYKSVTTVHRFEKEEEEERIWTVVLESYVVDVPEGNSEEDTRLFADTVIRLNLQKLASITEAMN
I133N: 103%
L8S: 15.5%
E128N: 88.6%
G108M: -0.373%
Q10W: 58.5%
G102L: -4.51%
T120L: -9.81%
A35V: 38%
S104E: 3.63%
Q10L: 68.1%
Y115K: 8.12%
V142Y: 34.9%
V100R: 31.8%
G108K: -5.59%
V40R: 0.995%
K54T: -12.8%

Study 2
Target: PABPC1L2, full length, GST fusion (mouse, UniProt A0ABA7IW68)
Technique: RNAcompete
Molecule type: RNA
Matrix: in vitro
Concentration: 20 nM
Setting: 7-mer, probes averaged, single round
Reference: mean of 7-mers
Direction: higher = stronger binding
Quantity: 7-mer Z-score
Target sequence (chain): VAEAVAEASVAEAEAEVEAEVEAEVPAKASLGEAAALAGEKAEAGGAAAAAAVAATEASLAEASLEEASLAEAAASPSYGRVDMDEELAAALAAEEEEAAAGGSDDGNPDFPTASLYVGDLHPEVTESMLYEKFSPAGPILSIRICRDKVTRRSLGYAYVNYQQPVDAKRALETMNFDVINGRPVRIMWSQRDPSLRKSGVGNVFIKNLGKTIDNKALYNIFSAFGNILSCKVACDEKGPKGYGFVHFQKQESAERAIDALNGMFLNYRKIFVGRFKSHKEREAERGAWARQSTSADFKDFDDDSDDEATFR
GUGGUUG: -0.231
AAGUUGU: 0.0116
UUAAUAG: -0.17
AGACGCA: -0.159
GUUGAUC: -0.211
AAAACCC: 2.21
AGGUGAG: 0.0787
CCGGACC: -0.313
AACACAU: 0.466
GCAGCUG: -0.148
GAGCCCU: -0.269
UGGCGCG: -0.15
GUGAACC: -0.248
GAUUGAA: -0.0754
UAAAACU: 1.62

Study 3
Target: Interferon regulatory factor 5, full length, phosphomimetic (IRF5, Homo sapiens, UniProt Q13568-2, residues 1-514, K96S/S451D/S453D/S456D/S462D)
Technique: protein-binding microarray
Molecule type: double-stranded DNA, one strand shown
Matrix: in vitro
Concentration: 250 nM
Setting: 60-bp whole probe
Added: salmon DNA 0.4 mg/ml
Reference: random background probes
Direction: higher = stronger binding
Quantity: log fluorescence
Shared flanks, not repeated: GCCTAGCAC … GTCTTGATTCGCTTGACGCTGCTG
TTAGGTCTCCTTTTCCTTTGGTGCTAG: 0.347 z-score
GACGAACTGGGTCTCGAGACGTGCTAG: -0.466 z-score
AAACAAATAAGCCTTACTTGGTGCTAG: 0.149 z-score
GACGGTTTCGGTTCCGGCACGTGCTAG: 9.38 z-score
TTAGCTATCGGGACTGGGTTAGTGCTA: 2.17 z-score
GACGGTTCCGGTTTGGGGACGTGCTAG: 0.857 z-score
GAGGGACTGGGGTTTCGGGACGTGCTA: 1.06 z-score
GACGGACAGCTTCTCCTGACGTGCTAG: -0.582 z-score
TCATTTCTCAACCATTTTACTGTGCTA: 1.47 z-score
TTAGGTATCCATTTCCTTTAGTGCTAG: 0.419 z-score
CCAAGTTTATACCTTAGGTTGTGCTAG: -0.14 z-score
TATTTTCCTTTAAACTTTTAGTGCTAG: 2.15 z-score
TATGTCTGGCCCAAGCAGCCGTGCTAG: -0.566 z-score
TTAGGACAGCTACTGCTTTAGTGCTAG: -0.165 z-score
TTAGGACTGCTACTGCTTAAGTGCTAG: -0.398 z-score
TTACGACTGGGGTATCGGTTAGTGCTA: 3.28 z-score
TTAGATTTCAGATTCGATTAGTGCTAG: 1.68 z-score
ACTAATTTTCATTTTCCAAAGTGCTAG: 2.87 z-score

Study 4
Target: Hepatocyte nuclear factor 3-alpha (Foxa1, Mus musculus, UniProt P35582, residues 1-468, full length assumed)
Technique: EMSA with sequencing
Molecule type: double-stranded DNA, one strand shown
Matrix: in vitro
Concentration: 10 and 20 nM
Setting: whole designed probe, mean of two concentrations, ends assumed
Reference: negative control set to 0
Direction: higher = stronger binding
Quantity: normalised bound fraction
Residues (chain): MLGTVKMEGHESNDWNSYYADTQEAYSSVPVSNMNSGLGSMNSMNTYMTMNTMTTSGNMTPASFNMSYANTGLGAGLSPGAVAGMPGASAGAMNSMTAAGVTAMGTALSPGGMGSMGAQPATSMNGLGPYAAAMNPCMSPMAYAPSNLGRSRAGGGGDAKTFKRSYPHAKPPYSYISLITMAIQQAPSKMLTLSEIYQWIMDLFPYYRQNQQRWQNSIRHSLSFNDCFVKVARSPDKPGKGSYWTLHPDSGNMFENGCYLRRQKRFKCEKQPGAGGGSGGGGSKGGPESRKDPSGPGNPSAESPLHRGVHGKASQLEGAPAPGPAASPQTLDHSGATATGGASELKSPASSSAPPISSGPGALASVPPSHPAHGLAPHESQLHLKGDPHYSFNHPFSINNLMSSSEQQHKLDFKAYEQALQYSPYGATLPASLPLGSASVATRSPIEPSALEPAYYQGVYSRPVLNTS
GTGAGCGGTGCCCATTGATGGGGAACATCTTCCCCCTCTTCCTTGCCCCACCAGCTCACCTTCCCGGGTTATTTGCACAAAGGAAAATAAATAAAGCCGGCATTCGTTAACCCTCTTCTGGCGCAAACTGCTGTTTGCTCTGGATCTAACATGGTCCTTTGGCGACGCCAGGCTCCGGGAGAGCAAAGCACCGTGTCAGGGCCATGATCCGGGGTGGCCTTTCACTGGGATCGTGGGGAC: 0.368 ratio
GTGAGCGGTGCCCATTGATGGGGAACTTATTTTGATAACATCTCCTTTTCATTAGAACCTTCCTCTCTAGTCCCTCTATTTCAATCTTTAATGTAGTGCTTTGTGCTGTTTCATGCCTTTGTTTACATTCTTACACACACACACCCCATTCCTGGAATTTCCCTCCTAGTCGTCTCTGCCTGAAAAAAAACCCTACTAACCCTTTGAGGCCAGCTCAGATTTCACTGGGATCGTGGGGAC: 0.468 ratio
GTGAGCGGTGCCCATTGATGGGGAACTTCCTTTATCCCAACATGTTTATACAGACAAAACCAGGTTAAAATCGACACAAGGTCAACTTGAAATGGGGAAAGAGGAAGGTGACGTCACAAAATAAACATGAAGTCTTGTGTACAAGCATCTGCAGAAGAGTTCAGCCTCACCACTTGGGTAATGCTGTTGGAATGTGGTCTGGGTTCACTGTATTTGAATTTTCACTGGGATCGTGGGGAC: 0.34 ratio
GTGAGCGGTGCCCATTGATGGGGAACTTGAGTTTTTTCCACTTTTTGACTACTATGAATAATGCTTCTGTAAACATTCTTGTACAAGTTTCTTTGGGAAATATTTTTTCAGTTCTCCTGTGTGTACTTAGGAGTTGAATTGCTGAGTGTTGTGGTAACTATGTTTAGCTTTTTGAGGAACTGCCAAACTATTTTCCAAAATGACTGCACCATTTTACAATTTCACTGGGATCGTGGGGAC: 0.354 ratio

Study 5
Target: RING finger protein unkempt homolog, zinc fingers 1-6, GST-SBP tag (UNK, Homo sapiens, UniProt Q9C0B0, residues 30-357)
Chain of UniProt Q9C0B0 (30-357, looked up): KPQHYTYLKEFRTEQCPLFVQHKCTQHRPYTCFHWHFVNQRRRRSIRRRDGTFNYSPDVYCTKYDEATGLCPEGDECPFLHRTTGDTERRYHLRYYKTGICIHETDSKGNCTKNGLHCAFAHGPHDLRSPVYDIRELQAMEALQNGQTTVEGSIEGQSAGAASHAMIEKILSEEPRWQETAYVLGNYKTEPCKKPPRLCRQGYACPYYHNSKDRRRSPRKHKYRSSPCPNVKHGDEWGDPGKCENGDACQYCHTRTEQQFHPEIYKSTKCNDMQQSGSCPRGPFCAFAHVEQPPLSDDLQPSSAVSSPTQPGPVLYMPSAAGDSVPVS
Technique: RNA Bind-n-Seq
Molecule type: RNA
Matrix: in vitro
Concentration: not given
Setting: RNA with constant flanks, human and mouse sites, ends assumed
Reference: input RNA pool
Direction: higher = stronger binding
Quantity: bound/input enrichment
Shared flanks, not repeated: GGGAGUUCUACAGUCCGACGAUC … CAACAGAGGAUUGAGCAUCA
CCCAGGCGUGUUUCAGCUGCUGGUGUAGUUAUUUGAGGCGAGCUUUAACUCUGCUCCUGGUUCCUUUGCAUUCUGGUGAAGCCAAGCAGCGCUCACUCAGUGUUCUUCAUUCAGUGCAAC: 0.241 ratio
GACUUUUAAUAAUGUUUUUGAAUUUCGUAUUCUUUCAUUCCACUGUGUAAAGUGCUAGACAUUUUCCAAUUUAAAAUUUUGCUUUUUAUCCUGGCACUGGCAAAAAGAACUGUGAAAGUG: 5.71 ratio
CCCGUGUCGAGAGUUUAUUCUAGGGACAGGAAUCAAAAAUGCGGUGCGUCUUUCUACGUGAAUAGGAUUUUGUGGCUGGCCAGAUACACUGCAUCAUCUUUUUCAUCAUUUUUAGUUCAA: 3.25 ratio
AGAUGAUGAUUGCACGGUUAGACACACAGCUGAAGAAUAAGCUUAUAACACUGAUGGGUCAGAAGACAUCUCUAACCCAAGAAACAGAGCUUUUGGAAUCCUUACUUCAGGAGGUGGAGC: 0.258 ratio
AGAGACCUCCUAAAGACAUUCAGAAUCUCAUCUGACACAUUUAUAACCUACAUGAUGACUUUAGAAGACCAUUACCAUUCUGACGUGGCAUAUCACAACAGCCUGCACGCUGCUGAUGUA: 0.261 ratio
AUCGCCAAGACUCACGAAGAUAUUGAAGCACAGAUUCGAGAAAUUCAAGGCAAGAAGGCAGCUCUUGAUGAAGCUCAAGGAGUGGGCCUCGAUUCUACAGGUUAUUAUGACCAGGAAAUU: 0.218 ratio
GAGAUACCAGGACAGAGUCAUUGCUACAUAUGUUUGACCUGAUCUAGCCUUUUCCAAAUGAAUAGCCUCAACUCUGUUGUAAAGAAAGUUUUAUUUGUAUUUUACUACUAUUGGGUCAAU: 1.87 ratio
AAUAAAGCUGUUGUGUUGCGGGGCCAUGAAUCUGAAGUUUUUAUCUGUGCCUGGAACCCUGUUAGUGAUCUCCUAGCAUCAGGGUCUGGAGACUCAACAGCAAGAAUAUGGAAUCUUAGU: 0.507 ratio

Single results of other studies
B1: RNF2 RING domain (UniProt Q99496); chain SPRSLHSELMCPICLDMLKNTMTTKECLHRFCADCIITALRSGNKECPTCRKKLVSKRSLR
B1 (RNF2 RING domain)  lacZ reporter activity (UBE2D2 UBC core domain (UniProt P62837); yeast two-hybrid; yeast; mostly zero background; reference: not given, higher = stronger interaction): 0

Excerpt of the above (study 3):
GACGGTTCCGGTTTGGGGACGTGCTAG: 0.857 z-score
CCAAGTTTATACCTTAGGTTGTGCTAG: -0.14 z-score
ACTAATTTTCATTTTCCAAAGTGCTAG: 2.87 z-score
